Experimental data collected from several papers.
Protocols differ between the studies behind these lines. Changes are numbered by the printed parent chain.
WRKY6 full length assumed: WRKY6 full length assumed (Arabidopsis thaliana, UniProt Q9C519)
Sequence of UniProt Q9C519 (whole entry, looked up): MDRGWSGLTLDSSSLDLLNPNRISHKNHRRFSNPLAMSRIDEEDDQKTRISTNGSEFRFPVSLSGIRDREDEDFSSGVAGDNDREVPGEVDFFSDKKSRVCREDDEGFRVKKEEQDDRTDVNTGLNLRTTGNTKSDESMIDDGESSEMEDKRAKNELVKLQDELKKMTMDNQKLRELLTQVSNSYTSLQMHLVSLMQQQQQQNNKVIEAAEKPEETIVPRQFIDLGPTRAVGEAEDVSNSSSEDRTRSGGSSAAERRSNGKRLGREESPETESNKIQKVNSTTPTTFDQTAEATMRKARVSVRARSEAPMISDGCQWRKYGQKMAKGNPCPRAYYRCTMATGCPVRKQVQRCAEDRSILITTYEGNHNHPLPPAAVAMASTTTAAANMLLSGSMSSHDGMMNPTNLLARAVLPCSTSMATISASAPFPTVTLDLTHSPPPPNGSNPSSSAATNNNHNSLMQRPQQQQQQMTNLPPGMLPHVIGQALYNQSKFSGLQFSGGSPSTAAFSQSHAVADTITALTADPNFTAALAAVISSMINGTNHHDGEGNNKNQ
pum: pum 1093-1426 (Drosophila melanogaster, UniProt P25822)
Sequence of UniProt P25822 (whole entry, looked up): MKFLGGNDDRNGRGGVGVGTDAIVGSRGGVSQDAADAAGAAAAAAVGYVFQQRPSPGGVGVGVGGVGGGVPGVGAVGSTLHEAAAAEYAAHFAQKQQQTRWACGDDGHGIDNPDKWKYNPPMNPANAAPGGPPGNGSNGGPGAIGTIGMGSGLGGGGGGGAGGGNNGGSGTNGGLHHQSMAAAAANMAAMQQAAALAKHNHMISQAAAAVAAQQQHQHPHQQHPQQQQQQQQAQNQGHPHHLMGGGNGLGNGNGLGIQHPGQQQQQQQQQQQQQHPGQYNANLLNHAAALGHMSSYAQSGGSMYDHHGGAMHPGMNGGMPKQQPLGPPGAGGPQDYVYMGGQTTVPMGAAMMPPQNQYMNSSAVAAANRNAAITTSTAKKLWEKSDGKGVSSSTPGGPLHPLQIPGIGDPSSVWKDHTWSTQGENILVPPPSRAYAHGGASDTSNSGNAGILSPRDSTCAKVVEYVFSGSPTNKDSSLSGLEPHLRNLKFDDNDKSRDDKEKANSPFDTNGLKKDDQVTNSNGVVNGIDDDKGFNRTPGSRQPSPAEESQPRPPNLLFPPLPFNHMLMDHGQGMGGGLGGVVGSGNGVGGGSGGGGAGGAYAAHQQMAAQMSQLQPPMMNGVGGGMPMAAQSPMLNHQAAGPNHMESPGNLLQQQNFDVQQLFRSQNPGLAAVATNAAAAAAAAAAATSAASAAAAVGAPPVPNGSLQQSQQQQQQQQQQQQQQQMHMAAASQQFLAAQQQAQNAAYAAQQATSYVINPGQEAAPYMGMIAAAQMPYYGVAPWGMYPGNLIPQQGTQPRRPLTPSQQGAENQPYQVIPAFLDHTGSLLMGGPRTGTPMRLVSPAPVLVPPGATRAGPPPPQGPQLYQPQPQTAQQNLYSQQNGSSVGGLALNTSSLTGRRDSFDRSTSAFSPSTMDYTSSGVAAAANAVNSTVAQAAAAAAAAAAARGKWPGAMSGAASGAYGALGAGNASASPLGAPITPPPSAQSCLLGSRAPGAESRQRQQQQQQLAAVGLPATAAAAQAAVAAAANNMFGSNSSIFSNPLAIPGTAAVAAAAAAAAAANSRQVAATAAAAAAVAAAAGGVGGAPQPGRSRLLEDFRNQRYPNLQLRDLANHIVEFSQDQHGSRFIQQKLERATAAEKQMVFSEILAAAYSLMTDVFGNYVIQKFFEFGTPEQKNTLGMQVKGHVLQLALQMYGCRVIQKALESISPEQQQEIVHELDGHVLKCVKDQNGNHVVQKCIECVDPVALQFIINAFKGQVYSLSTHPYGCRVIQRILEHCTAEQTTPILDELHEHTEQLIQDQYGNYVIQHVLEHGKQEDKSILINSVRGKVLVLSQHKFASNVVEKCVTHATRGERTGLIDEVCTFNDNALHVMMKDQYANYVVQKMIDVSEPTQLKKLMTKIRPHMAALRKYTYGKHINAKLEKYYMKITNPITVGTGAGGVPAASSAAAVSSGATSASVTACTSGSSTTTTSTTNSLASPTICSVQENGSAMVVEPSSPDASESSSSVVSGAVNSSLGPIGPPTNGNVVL
ELAVL1 full length assumed: ELAVL1 full length assumed (Homo sapiens, UniProt Q15717)
Sequence of UniProt Q15717 (whole entry, looked up): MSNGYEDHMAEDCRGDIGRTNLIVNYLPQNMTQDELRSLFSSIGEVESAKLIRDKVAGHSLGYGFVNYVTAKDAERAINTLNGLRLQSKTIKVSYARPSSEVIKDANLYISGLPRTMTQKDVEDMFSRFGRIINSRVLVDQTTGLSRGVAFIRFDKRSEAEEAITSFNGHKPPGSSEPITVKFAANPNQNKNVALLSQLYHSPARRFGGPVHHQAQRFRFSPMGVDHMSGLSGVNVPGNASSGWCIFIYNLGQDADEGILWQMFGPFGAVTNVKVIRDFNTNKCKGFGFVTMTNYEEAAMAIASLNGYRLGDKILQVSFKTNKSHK
BMP2 disulfide-linked dimer: BMP2 disulfide-linked dimer (Homo sapiens, UniProt P12643)
Sequence of UniProt P12643 (whole entry, looked up): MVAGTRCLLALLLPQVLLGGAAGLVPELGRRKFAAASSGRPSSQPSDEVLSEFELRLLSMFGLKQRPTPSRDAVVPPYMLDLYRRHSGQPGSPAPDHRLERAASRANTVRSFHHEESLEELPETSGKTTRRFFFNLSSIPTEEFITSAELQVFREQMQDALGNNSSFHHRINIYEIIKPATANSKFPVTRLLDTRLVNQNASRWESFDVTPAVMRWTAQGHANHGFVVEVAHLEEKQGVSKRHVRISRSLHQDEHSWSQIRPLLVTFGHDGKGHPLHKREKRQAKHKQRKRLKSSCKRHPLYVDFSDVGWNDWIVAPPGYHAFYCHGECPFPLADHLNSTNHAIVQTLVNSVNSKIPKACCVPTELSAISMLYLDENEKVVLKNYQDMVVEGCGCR
clp full length assumed: clp full length assumed (Lysobacter enzymogenes, UniProt Q7WZ07)
T1: SREBF1 residues 1-403 (Rattus norvegicus); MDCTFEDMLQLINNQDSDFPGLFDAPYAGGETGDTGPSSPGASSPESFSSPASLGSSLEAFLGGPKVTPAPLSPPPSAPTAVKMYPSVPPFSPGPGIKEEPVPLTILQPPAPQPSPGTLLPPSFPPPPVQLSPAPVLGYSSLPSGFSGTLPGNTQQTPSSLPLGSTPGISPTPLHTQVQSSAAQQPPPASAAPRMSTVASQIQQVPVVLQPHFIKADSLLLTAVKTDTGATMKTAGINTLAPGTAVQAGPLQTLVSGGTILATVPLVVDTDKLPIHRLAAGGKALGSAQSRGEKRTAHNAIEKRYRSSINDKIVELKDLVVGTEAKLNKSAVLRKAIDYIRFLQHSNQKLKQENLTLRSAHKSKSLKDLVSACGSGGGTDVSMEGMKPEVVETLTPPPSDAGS
T2: NFATC1 408-716; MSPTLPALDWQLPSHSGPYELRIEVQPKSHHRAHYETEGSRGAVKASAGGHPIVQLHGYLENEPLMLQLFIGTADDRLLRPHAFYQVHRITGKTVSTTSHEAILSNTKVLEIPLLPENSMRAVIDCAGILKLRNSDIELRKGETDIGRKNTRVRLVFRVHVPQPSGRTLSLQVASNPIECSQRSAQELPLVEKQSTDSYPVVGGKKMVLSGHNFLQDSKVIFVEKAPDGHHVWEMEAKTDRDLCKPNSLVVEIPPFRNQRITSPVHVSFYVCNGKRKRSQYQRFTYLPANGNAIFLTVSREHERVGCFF
P1: NCAM1 residues 745-753 (Mus musculus); IAVNLCGKA; partner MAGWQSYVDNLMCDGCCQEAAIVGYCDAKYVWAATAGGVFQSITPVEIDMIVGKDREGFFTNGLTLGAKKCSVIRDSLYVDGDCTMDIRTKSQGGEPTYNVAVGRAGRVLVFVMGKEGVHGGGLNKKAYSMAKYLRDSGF
B1: RGMC ectodomain (Homo sapiens, UniProt Q6ZVN8); chain QCKILRCNAEYVSSTLSLRGGGSSGALRGGGGGGRGGGVGSGGLCRALRSYALCTRRTARTCRGDLAFHSAVHGIEDLMIQHNCSRQGPTAPPPPRGPALPGAGSGLPAPDPCDYEGRFSRLHGRPPGFLHCASFGDPHVRSFHHHFHTCRVQGAWPLLDNDFLFVQATSSPMALGANATATRKLTIIFKNMQECIDQKVYQAEVDNLPVAFEDGSINGGDRPGGSSLSIQTANPGNHVEIQAAYIGTTIIIRQTAGQLSFSIKVAEDVAMAFSAEQDLQLCVGGCPPSQRLSRSERNRRGAITIDTARRLCKEGLPVEDAYFHSCVFDVLISGDPNFTVAAQAALEDARAFLPDLEKLHLFPSD
B2: RGMA ectodomain (Homo sapiens); chain TSPCKILKCNSEFWSATSGSHAPASDDTPEFCAALRSYALCTRRTARTCRGDLAYHSAVHGIEDLMSQHNCSKDGPTSQPRLRTLPPAGDSQERSDSPEICHYEKSFHKHSATPNYTHCGLFGDPHLRTFTDRFQTCKVQGAWPLIDNNYLNVQVTNTPVLPGSAATATSKLTIIFKNFQECVDQKVYQAEMDELPAAFVDGSKNGGDKHGANSLKITEKVSGQHVEIQAKYIGTTIVVRQVGRYLTFAVRMPEEVVNAVEDWDSQGLYLCLRGCPLNQQIDFQAFHTNAEGTGARRLAAASPAPTAPETFPYETAVAKCKEKLPVEDLYYQACVFDLLTTGDVNFTLAAYYALEDVKMLHSNKDKLHLYERTRDLPGRA
Sequence of UniProt Q8K3Y3 (whole entry, looked up): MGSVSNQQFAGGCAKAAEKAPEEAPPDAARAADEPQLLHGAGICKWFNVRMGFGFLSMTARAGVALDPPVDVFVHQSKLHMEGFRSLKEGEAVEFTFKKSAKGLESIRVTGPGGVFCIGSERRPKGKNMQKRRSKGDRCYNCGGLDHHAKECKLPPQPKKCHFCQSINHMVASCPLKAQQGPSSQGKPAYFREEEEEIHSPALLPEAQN
Sequence of UniProt P50534 (whole entry, unmodified, looked up): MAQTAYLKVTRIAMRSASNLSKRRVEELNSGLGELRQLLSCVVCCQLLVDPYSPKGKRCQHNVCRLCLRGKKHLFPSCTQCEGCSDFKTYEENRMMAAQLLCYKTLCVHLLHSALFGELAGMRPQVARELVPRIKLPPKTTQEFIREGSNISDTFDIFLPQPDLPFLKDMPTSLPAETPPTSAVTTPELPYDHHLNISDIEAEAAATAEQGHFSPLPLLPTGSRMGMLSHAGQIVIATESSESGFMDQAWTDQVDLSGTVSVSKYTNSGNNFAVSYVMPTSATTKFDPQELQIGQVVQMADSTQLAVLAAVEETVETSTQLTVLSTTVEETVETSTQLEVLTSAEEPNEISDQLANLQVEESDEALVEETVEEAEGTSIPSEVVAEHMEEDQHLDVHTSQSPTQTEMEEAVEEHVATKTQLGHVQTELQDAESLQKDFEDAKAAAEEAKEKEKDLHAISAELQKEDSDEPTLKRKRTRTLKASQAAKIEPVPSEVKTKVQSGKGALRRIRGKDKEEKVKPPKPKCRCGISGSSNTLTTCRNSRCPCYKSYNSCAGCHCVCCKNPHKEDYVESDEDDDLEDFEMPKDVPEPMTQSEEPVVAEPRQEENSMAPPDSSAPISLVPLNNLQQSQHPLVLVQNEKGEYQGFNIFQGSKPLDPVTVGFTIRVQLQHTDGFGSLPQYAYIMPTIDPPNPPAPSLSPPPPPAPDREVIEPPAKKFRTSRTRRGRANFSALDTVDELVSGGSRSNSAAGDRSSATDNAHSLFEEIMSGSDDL
Sequence of UniProt Q60900 (whole entry, looked up): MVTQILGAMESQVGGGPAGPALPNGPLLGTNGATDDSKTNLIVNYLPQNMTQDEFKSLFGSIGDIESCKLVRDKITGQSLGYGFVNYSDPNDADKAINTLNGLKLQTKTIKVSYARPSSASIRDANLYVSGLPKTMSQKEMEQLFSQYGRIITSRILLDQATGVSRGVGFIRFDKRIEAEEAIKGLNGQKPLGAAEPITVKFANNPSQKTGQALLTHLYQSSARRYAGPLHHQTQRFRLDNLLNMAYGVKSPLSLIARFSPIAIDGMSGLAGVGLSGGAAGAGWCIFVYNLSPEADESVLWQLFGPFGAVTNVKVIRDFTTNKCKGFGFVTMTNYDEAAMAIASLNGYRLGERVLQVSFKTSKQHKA
Sequence of UniProt Q9NWB1 (whole entry, looked up): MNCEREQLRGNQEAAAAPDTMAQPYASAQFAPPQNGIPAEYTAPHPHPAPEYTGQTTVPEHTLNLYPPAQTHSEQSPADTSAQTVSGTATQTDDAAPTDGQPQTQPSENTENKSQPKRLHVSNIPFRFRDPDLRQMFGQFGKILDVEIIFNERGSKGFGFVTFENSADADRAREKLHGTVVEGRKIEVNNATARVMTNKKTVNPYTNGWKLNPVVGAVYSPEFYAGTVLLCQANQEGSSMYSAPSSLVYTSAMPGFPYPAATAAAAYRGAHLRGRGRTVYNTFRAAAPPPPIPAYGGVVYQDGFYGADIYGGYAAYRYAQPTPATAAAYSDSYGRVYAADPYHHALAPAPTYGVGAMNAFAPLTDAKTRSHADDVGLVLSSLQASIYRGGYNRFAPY
Sequence of UniProt O15527 (whole entry, looked up): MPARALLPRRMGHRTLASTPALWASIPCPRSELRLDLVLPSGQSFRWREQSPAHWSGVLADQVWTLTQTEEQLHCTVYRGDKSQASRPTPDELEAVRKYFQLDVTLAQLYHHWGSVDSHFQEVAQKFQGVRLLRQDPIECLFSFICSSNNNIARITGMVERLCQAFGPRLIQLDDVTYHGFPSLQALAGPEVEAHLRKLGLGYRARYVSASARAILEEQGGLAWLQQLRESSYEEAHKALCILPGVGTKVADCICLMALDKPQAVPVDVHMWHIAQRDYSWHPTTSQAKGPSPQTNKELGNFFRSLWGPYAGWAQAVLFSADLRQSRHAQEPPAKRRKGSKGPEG

Molecule | tested on | assay | system | conditions | how to read | measurement | value
AAAAUUCAGUUGAUUUCUAAUUUUUUGUUGAUUCCAUUU (ssRNA) | Elavl3 full length assumed (Mus musculus, UniProt Q60900) | EMSA | RNA |  |  | binding | binds
GGGUAAUGCCCCUCCCCUCUCACACCUCCGGGAUCAGUGACCGGAGGGCGGUCGGGGAGGGGACACCU (structured RNA (Pyrococcus abyssi); hairpin, internal loop, K-turn) | Uncharacterized protein full length assumed (Pyrococcus abyssi, UniProt Q9V1W8) | EMSA | folded RNA |  |  | binding | no binding
TTATTCAGCCATCAAAAGTTGACGAATAAT (dsDNA) | WRKY6 full length assumed | EMSA | double-stranded DNA, one strand shown |  |  | binding | no binding
GGGAGACCUAGCCUCAUAUAAUCGUUGUCCAGAAUGGGAUGGAUUCGUAGCAUAAGUUUUCCAAACAUUAUUUUGUUGUCGAAAAUUGUACAUAAGCCAAUUAAGCCGCUA (ssRNA) | pum | EMSA | RNA |  |  | binding | binds
UCGAUGUUUUGGGUAUUGAAUGUGGUAAGUGGAGGAAAUG (ssRNA) | ELAVL1 full length assumed | EMSA | RNA |  |  | binding | no binding
TGCTGATTGGCCATGTGCGCTCACCCGAGGGGCGGGG (dsDNA) | T1, SREBF1 residues 1-403 (Rattus norvegicus) | EMSA | double-stranded DNA, one strand shown |  |  | binding | binds
AGGGGGCCGUGGGGUGGGAGCUGGGG (G-quadruplex RNA; G4) | SF3B4 1-424 (Homo sapiens, UniProt Q15427) | EMSA | folded RNA | 100 nM |  | binding | binds
CUGUAUCUAUCUGUUUAUCUAUACCUAUCUAUGUAUCUAUCUAUUGAAGUGUGAAAUU (ssRNA) | ELAVL1 1-326 (Homo sapiens, UniProt Q15717) | EMSA | RNA | not purified |  | binding | no binding
TTATTCAGCCATCAAAAGTTGACCCATAAT (dsDNA) | WRKY6 full length assumed | EMSA | double-stranded DNA, one strand shown |  |  | binding | binds
AGGCGAGUAGGGUAUGCUG (ssRNA) | TARDBP 1-414 (Homo sapiens, UniProt Q13148) | UV cross-linking | RNA, S100 |  |  | binding | no binding
P1 N4Q L5A | PFN2 | ELISA |  | 3.1 µM, read off a plot | higher = more binding | signal | 0.09 OD
TTATTCAGCCATCAAAAGTTGACCGATAAT (dsDNA) | WRKY6 full length assumed | EMSA | double-stranded DNA, one strand shown |  |  | binding | binds
ATGAGCGAGATG (dsDNA) | msl-2 520-570 R543A/C560G (Drosophila melanogaster, UniProt P50534) | NMR titration | double-stranded DNA, one strand shown |  |  | binding | no binding
TTATTCAGCCATCAAAAGTAGACCAATAAT (dsDNA) | WRKY6 full length assumed | EMSA | double-stranded DNA, one strand shown |  |  | binding | no binding
CAAAGUGCUCAUAGUGCAGGUAGUUUUGGCAUGACUCUACUGUAGUAUGGGCACUUCCAG (structured RNA) | RBFOX1 109-208 (Homo sapiens, UniProt Q9NWB1) | SHAPE footprinting | folded RNA |  |  | binding | binds
TTATTCAGCCATCAAATGTTGACCATTAAT (dsDNA) | WRKY6 full length assumed | EMSA | double-stranded DNA, one strand shown |  |  | binding | binds
B1 (RGMC ectodomain) | BMP2 disulfide-linked dimer | SPR |  | read off a plot |  | Kd | 250 nM
GGTGAGTAAAGTCACGTGGTTATACAACAA (dsDNA) | Basic helix-loop-helix transcription factor 1-394 (Salvia miltiorrhiza, UniProt A0A0H3Y8V8) | EMSA | double-stranded DNA, one strand shown |  |  | binding | binds

Molecule | tested on | assay | system | conditions | how to read | measurement | value
TTATTCAGCCATCAAAAGTTGATCAATAAT (dsDNA) | WRKY6 full length assumed | EMSA | double-stranded DNA, one strand shown |  |  | binding | no binding
GGGGUAGUGAUUUUACCCUGUUUAGGAGAU (structured RNA; terminal loop) | Lin28a 1-209 (Mus musculus, UniProt Q8K3Y3) | UV crosslinking, SDS-PAGE | folded RNA |  |  | binding | binds
CAAACAAAACCGUGUAAAAACAAA (ssRNA) | rnr 82-725 (Mycoplasmoides genitalium, UniProt P47350) | fluorescence polarization | RNA | with: Mg2+ |  | binding | binds
UGGAGAGCUCGCUGCUUCUUCAGGUGUUUCCACUCCUGGU (ssRNA) | ELAVL1 full length assumed | EMSA | RNA |  |  | binding | binds
GCAGGCUGAGGUAGUAGUUUGUGCAGACGAAAGUCUGCACAGGCCACUGCCUUGCCAGC (structured RNA) | Lin28a 119-180 (Mus musculus, UniProt Q8K3Y3) | EMSA | folded RNA |  |  | binding | no binding
AGGAAGTTTTCCGCTGGT (dsDNA) | T2, NFATC1 408-716 | EMSA | double-stranded DNA, one strand shown |  |  | binding | binds
GCAGAUUGAGGGUCUAUGAUACCACCCGGUACAAAAGAUAUCUGCA (structured RNA) | Lin28a 119-180 (Mus musculus, UniProt Q8K3Y3) | NMR HSQC | folded RNA | with: Zn2+ |  | binding | binds
GATATTCCAAAGAATGCGTTGCGTCGCATTGCAATCGGGCCTGCGCCTTT (dsDNA) | clp full length assumed | EMSA | double-stranded DNA, one strand shown |  |  | binding | no binding
B2 (RGMA ectodomain) | BMP2 disulfide-linked dimer | SPR |  | read off a plot |  | Kd | 1100 nM
GGCGGCGGTCTCATCATCGAAACGGGGCGATGCGCTCATTTTCTTAAACA (dsDNA) | clp full length assumed | competition | double-stranded DNA, one strand shown |  |  | binding | binds
CGAATATGAGCGAGATGGATG (dsDNA) | msl-2 520-570 C560G (Drosophila melanogaster, UniProt P50534) | NMR NOESY | double-stranded DNA, one strand shown |  |  | binding | binds
TTATTCAGCCATCAAAAGATGACCAATAAT (dsDNA) | WRKY6 full length assumed | EMSA | double-stranded DNA, one strand shown |  |  | binding | no binding
TTTTTTTTTTTTTTTTTTTTTTTTTTTTTTTTTTTTTTTTTTTTT (ssDNA) | DDX41 1-622 (Homo sapiens, UniProt Q9UJV9) | EMSA | single-stranded DNA |  |  | binding | binds
GCTGTAGTAATTCCAGCGAGAGGCAGAGGGAGCGAGCGGG (dsDNA) | CTCF 261-582 (Homo sapiens, UniProt P49711) | EMSA | double-stranded DNA, one strand shown | protein 400 nM, DNA 40 nM | higher = more DNA shifted | relative binding | < 30%
GGGAGACCUAGCCUCAUAUAACGGGGGCCAGAAUUGUAUAUAUUCGUAGCAUAAGUUUUCCAAACAUUAUUGGGGGGUCGAAAAUUGUACAUAAGCCAAUUAAGCCGCUA (ssRNA) | pum | EMSA | RNA |  |  | binding | binds
ATGTGTTAGTTGGGGGGTGACTGTTAAAAGTGCATACCGCCAAAAGATAAAATTTGAAATCTG (dsDNA; 2-aminopurine at -1 non-template) | POLRMT/TFB2M 43-1230; 21-396 (Homo sapiens) | 2-AP fluorescence | double-stranded DNA, one strand shown |  |  | binding | binds
CAGCAGCAGCAGCAGCAGCAGCAGCAGCAG (dsDNA; blunt 30 bp, 8-oxoG G6) | OGG1 (Homo sapiens, UniProt O15527) | NaBH4 trapping, SDS-PAGE | double-stranded DNA, one strand shown |  |  | binding | binds

Excerpt of the above:
Molecule | tested on | assay | system | conditions | how to read | measurement | value
CGAATATGAGCGAGATGGATG (dsDNA) | msl-2 520-570 C560G (Drosophila melanogaster, UniProt P50534) | NMR NOESY | double-stranded DNA, one strand shown |  |  | binding | binds
TTATTCAGCCATCAAAAGATGACCAATAAT (dsDNA) | WRKY6 full length assumed | EMSA | double-stranded DNA, one strand shown |  |  | binding | no binding
